Results collected from several papers.
Numbers after ± are the reported error. Values after ≈ are worked out from the molar mass of the structure shown.

Compound	organism	test	test system	setting	endpoint	value
CC[C@@H]1NC(=O)[C@H](CO)NC(=O)CNC(=O)[C@H](CSCNC(C)=O)NC(=O)[C@H](CCCCN)NC(=O)CNC(=O)[C@H](CO)NC(=O)[C@H](CCCNC(=N)N)NC(=O)[C@@H]2CSSC[C@H](NC(=O)[C@H](CCCCN)NC(=O)[C@H](C)NC(=O)CNC(=O)[C@H](CCCCN)NC(=O)CNC(=O)[C@H](CCCCN)NC1=O)C(=O)N[C@@H](CO)C(=O)N[C@@H](CCCNC(=N)N)C(=O)N[C@@H](CC(C)C)C(=O)N[C@@H](CCSC)C(=O)N[C@@H](Cc1ccc(O)cc1)C(=O)N[C@@H](CC(=O)O)C(=O)N[C@@H](CSCNC(C)=O)C(=O)N[C@@H](CC)C(=O)N[C@@H]([C@@H](C)O)C(=O)NCC(=O)N[C@@H](CO)C(=O)N2	Candida tropicalis				MIC	42.2 µM
NC1CSC2(SC1)C1CC3CC(C1)CC2C3 (stereo not drawn)	Influenza A virus	viral replication, plaque reduction	MDCK, A/Udorn/72 H3N2 M2 wild type		EC50	70 ± 10 nM
Nc1n[nH]c(=O)[nH]1	Aliivibrio fischeri	Microtox		98 mM, 30 min	decrease in bioluminescence	71%
CC[C@H](C)[C@H](NC(=O)[C@H](C)NC(=O)[C@H](CCC(=O)O)NC(=O)[C@H](CCC(=O)O)NC(=O)[C@H](CC(C)C)NC(=O)[C@H](CCCCN)NC(=O)[C@H](CCCCN)NC(=O)[C@H](CCSC)NC(=O)[C@H](CCC(=O)O)NC(=O)[C@H](Cc1ccc(O)cc1)NC(=O)[C@H](CCC(=O)O)NC(=O)[C@H](CC(C)C)NC(=O)[C@H](CC(=O)O)NC(=O)[C@H](CC(C)C)NC(=O)[C@H](Cc1ccccc1)NC(=O)[C@@H](NC(=O)[C@@H](NC(=O)[C@H](CC(N)=O)NC(=O)[C@@H](NC(=O)[C@H](CCC(N)=O)NC(=O)[C@H](CC(=O)O)NC(=O)[C@H](CC(C)C)NC(=O)[C@@H](N)CO)[C@@H](C)CC)C(C)C)[C@@H](C)O)C(=O)N[C@@H](CCCCN)C(=O)N[C@@H](CCCCN)C(=O)N[C@@H](CC(C)C)C(=O)N[C@@H](CCC(=O)O)C(=O)N[C@@H](CCC(=O)O)C(=O)N[C@@H](C)C(=O)N[C@@H](Cc1ccc(O)cc1)C(=O)N[C@H](C(=O)N[C@@H](CC(=O)O)C(=O)N[C@@H](CC(C)C)C(=O)N[C@@H](CCCCN)C(=O)N[C@@H](CCC(=O)O)C(=O)N[C@@H](CC(C)C)C(=O)O)[C@@H](C)CC	HCoV-OC43	viral infection, inhibitor, immunostaining	HCT-8	2 days	IC50	516 nM
NC1=NC2(CCCCC2)N(c2ccc(OCc3cn(CCCCOc4ccc5ccc(=O)oc5c4)nn3)cc2)C(N)=N1	Mycobacterium bovis BCG		resistant, thyA A148E		MIC50	3.2 µM (≈ 1.83 µg/mL)
Nc1nc(N)c2c(Cl)c(CNc3ccc(C(=O)O)cc3)ccc2n1	Mycobacterium tuberculosis	extracellular growth	H37Rv		MIC	~0.05 µM
CC[C@H](C)[C@H](NC(=O)[C@H](C)NC(=O)[C@H](CCC(=O)O)NC(=O)[C@H](CCC(=O)O)NC(=O)[C@H](CC(C)C)NC(=O)[C@H](CCCCN)NC(=O)[C@H](CCCCN)NC(=O)[C@H](CCSC)NC(=O)[C@H](CCC(=O)O)NC(=O)[C@H](Cc1ccc(O)cc1)NC(=O)[C@H](CCC(=O)O)NC(=O)[C@H](CC(C)C)NC(=O)[C@H](CC(=O)O)NC(=O)[C@H](CC(C)C)NC(=O)[C@H](Cc1ccccc1)NC(=O)[C@@H](NC(=O)[C@@H](NC(=O)[C@H](CC(N)=O)NC(=O)[C@@H](NC(=O)[C@H](CCC(N)=O)NC(=O)[C@H](CC(=O)O)NC(=O)[C@H](CC(C)C)NC(=O)[C@@H](N)CO)[C@@H](C)CC)C(C)C)[C@@H](C)O)C(=O)N[C@@H](CCCCN)C(=O)N[C@@H](CCCCN)C(=O)N[C@@H](CC(C)C)C(=O)N[C@@H](CCC(=O)O)C(=O)N[C@@H](CCC(=O)O)C(=O)N[C@@H](CO)C(=O)N[C@@H](Cc1ccc(O)cc1)C(=O)N[C@H](C(=O)N[C@@H](CC(=O)O)C(=O)N[C@@H](CC(C)C)C(=O)N[C@@H](CCCCN)C(=O)N[C@@H](CCC(=O)O)C(=O)N[C@@H](CC(C)C)C(=O)O)[C@@H](C)CC	HCoV-OC43	viral infection, inhibitor, immunostaining	HCT-8	2 days, dual mutations	IC50	519 nM
CC[C@H](C)[C@@H]1NC(=O)[C@@H](CC(C)C)NC(=O)[C@H](CCN)NC(=O)[C@@H](NC(=O)[C@@H](CO)NC(=O)[C@@H](NC(=O)[C@H](CCN)NC(=O)c2ccc(-c3ccccc3)cc2)[C@@H](C)O)CCNC(=O)[C@H](CC(C)C)NC(=O)[C@H](CCN)NC(=O)[C@H](CCN)NC1=O	Neisseria gonorrhoeae		49226		MIC	0.125 µg/mL
O=C(CCN(CCC(=O)N[C@@H](Cc1c[nH]c2ccccc12)C(=O)O)C(=O)CCN(CCC(=O)N(CCC(=O)N[C@@H](Cc1c[nH]c2ccccc12)C(=O)O)CCC(=O)N[C@@H](Cc1c[nH]c2ccccc12)C(=O)O)C(=O)CCOCC(COCCC(=O)N(CCC(=O)N(CCC(=O)N[C@@H](Cc1c[nH]c2ccccc12)C(=O)O)CCC(=O)N[C@@H](Cc1c[nH]c2ccccc12)C(=O)O)CCC(=O)N(CCC(=O)N[C@@H](Cc1c[nH]c2ccccc12)C(=O)O)CCC(=O)N[C@@H](Cc1c[nH]c2ccccc12)C(=O)O)(COCCC(=O)N(CCC(=O)N(CCC(=O)N[C@@H](Cc1c[nH]c2ccccc12)C(=O)O)CCC(=O)N[C@@H](Cc1c[nH]c2ccccc12)C(=O)O)CCC(=O)N(CCC(=O)N[C@@H](Cc1c[nH]c2ccccc12)C(=O)O)CCC(=O)N[C@@H](Cc1c[nH]c2ccccc12)C(=O)O)COCCC(=O)N(CCC(=O)N(CCC(=O)N[C@@H](Cc1c[nH]c2ccccc12)C(=O)O)CCC(=O)N[C@@H](Cc1c[nH]c2ccccc12)C(=O)O)CCC(=O)N(CCC(=O)N[C@@H](Cc1c[nH]c2ccccc12)C(=O)O)CCC(=O)N[C@@H](Cc1c[nH]c2ccccc12)C(=O)O)N[C@@H](Cc1c[nH]c2ccccc12)C(=O)O	human coronavirus 229E	viral replication			EC50	45000 ± 50 nM
CC[C@H](C)[C@H](NC(=O)[C@H](C)NC(=O)[C@H](CCC(=O)O)NC(=O)[C@H](CCC(=O)O)NC(=O)[C@H](CC(C)C)NC(=O)[C@H](CCCCN)NC(=O)[C@H](CCCCN)NC(=O)[C@H](CCSC)NC(=O)[C@H](CCC(=O)O)NC(=O)[C@H](Cc1ccc(O)cc1)NC(=O)[C@H](CCC(=O)O)NC(=O)[C@H](CC(C)C)NC(=O)[C@H](CC(=O)O)NC(=O)[C@H](CC(C)C)NC(=O)[C@H](Cc1ccccc1)NC(=O)[C@H](Cc1ccc(O)cc1)NC(=O)[C@@H](NC(=O)[C@H](CC(N)=O)NC(=O)[C@@H](NC(=O)[C@H](CCC(N)=O)NC(=O)[C@H](CC(=O)O)NC(=O)[C@H](CC(C)C)NC(=O)[C@@H](N)CO)[C@@H](C)CC)C(C)C)C(=O)N[C@@H](CCCCN)C(=O)N[C@@H](CCCCN)C(=O)N[C@@H](CC(C)C)C(=O)N[C@@H](CCC(=O)O)C(=O)N[C@@H](CCC(=O)O)C(=O)N[C@H](C(=O)N[C@@H](Cc1ccc(O)cc1)C(=O)N[C@H](C(=O)N[C@@H](CC(=O)O)C(=O)N[C@@H](CC(C)C)C(=O)N[C@@H](CCCCN)C(=O)N[C@@H](CCC(=O)O)C(=O)N[C@@H](CC(C)C)C(=O)O)[C@@H](C)CC)[C@@H](C)O	HCoV-OC43	viral infection, inhibitor, immunostaining	HCT-8	2 days, dual mutations	IC50	409 nM
c1cn(Cc2ccc(-c3ccc4[nH]ccc4c3)cc2)cn1	Mycobacterium bovis		BCG DSM 43990		MIC50 to Kd ratio	> 2
CC[C@H](C)[C@H](NC(=O)[C@H](C)NC(=O)[C@H](CCC(=O)O)NC(=O)[C@H](CCC(=O)O)NC(=O)[C@H](CC(C)C)NC(=O)[C@H](CCCCN)NC(=O)[C@H](CCCCN)NC(=O)[C@H](CCSC)NC(=O)[C@H](CCC(=O)O)NC(=O)[C@H](Cc1ccc(O)cc1)NC(=O)[C@H](CCC(=O)O)NC(=O)[C@H](CC(C)C)NC(=O)[C@H](CC(=O)O)NC(=O)[C@H](CC(C)C)NC(=O)[C@H](Cc1ccccc1)NC(=O)[C@H](Cc1ccccc1)NC(=O)[C@@H](NC(=O)[C@H](CC(N)=O)NC(=O)[C@@H](NC(=O)[C@H](CCC(N)=O)NC(=O)[C@H](CC(=O)O)NC(=O)[C@H](CC(C)C)NC(=O)[C@@H](N)CO)[C@@H](C)CC)C(C)C)C(=O)N[C@@H](CCCCN)C(=O)N[C@@H](CCCCN)C(=O)N[C@@H](CC(C)C)C(=O)N[C@@H](CCC(=O)O)C(=O)N[C@@H](CCC(=O)O)C(=O)N[C@@H](CO)C(=O)N[C@@H](Cc1ccc(O)cc1)C(=O)N[C@H](C(=O)N[C@@H](CC(=O)O)C(=O)N[C@@H](CC(C)C)C(=O)N[C@@H](CCCCN)C(=O)N[C@@H](CCC(=O)O)C(=O)N[C@@H](CC(C)C)C(=O)O)[C@@H](C)CC	HCoV-OC43	viral infection, inhibitor, immunostaining	HCT-8	2 days	IC50	147 nM
O=C(O)c1ccc(-c2ccc([N+](=O)[O-])cc2Cl)o1	Mycobacterium bovis		BCG		MIC99	500 µM (≈ 134 µg/mL)
CC[C@H](C)[C@H](NC(=O)[C@H](C)NC(=O)[C@H](CCC(=O)O)NC(=O)[C@H](CCC(=O)O)NC(=O)[C@H](CC(C)C)NC(=O)[C@H](CCCCN)NC(=O)[C@H](CCCCN)NC(=O)[C@H](CCSC)NC(=O)[C@H](CCC(=O)O)NC(=O)[C@H](Cc1ccc(O)cc1)NC(=O)[C@H](CCC(=O)O)NC(=O)[C@H](CC(C)C)NC(=O)[C@H](CC(=O)O)NC(=O)[C@H](CC(C)C)NC(=O)[C@H](Cc1ccccc1)NC(=O)[C@H](Cc1ccccc1)NC(=O)[C@@H](NC(=O)[C@H](CC(N)=O)NC(=O)[C@@H](NC(=O)[C@H](CCC(N)=O)NC(=O)[C@H](CC(=O)O)NC(=O)[C@H](CC(C)C)NC(=O)[C@@H](N)CO)[C@@H](C)CC)C(C)C)C(=O)N[C@@H](CCCCN)C(=O)N[C@@H](CCCCN)C(=O)N[C@@H](CC(C)C)C(=O)N[C@@H](CCC(=O)O)C(=O)N[C@@H](CCC(=O)O)C(=O)N[C@H](C(=O)N[C@@H](Cc1ccc(O)cc1)C(=O)N[C@H](C(=O)N[C@@H](CC(=O)O)C(=O)N[C@@H](CC(C)C)C(=O)N[C@@H](CCCCN)C(=O)N[C@@H](CCC(=O)O)C(=O)N[C@@H](CC(C)C)C(=O)O)[C@@H](C)CC)[C@@H](C)O	HCoV-OC43	viral infection, inhibitor, immunostaining	HCT-8	2 days, dual mutations	IC50	362 nM
Cc1cc(=O)oc2cc(OCCCCn3cc(COc4ccc(N5C(N)=NC(N)=NC56CCCCC6)cc4)nn3)ccc12	Mycobacterium bovis		BCG Tac^r9.1, thyA S125P missense	TA-C-resistant thyA mutant	MIC50	3.2 µM (≈ 1.87 µg/mL)

A few entries again:
Compound	organism	test	test system	setting	endpoint	value
Nc1nc(N)c2c(Cl)c(CNc3ccc(C(=O)O)cc3)ccc2n1	Mycobacterium tuberculosis	extracellular growth	H37Rv		MIC	~0.05 µM
O=C(O)c1ccc(-c2ccc([N+](=O)[O-])cc2Cl)o1	Mycobacterium bovis		BCG		MIC99	500 µM (≈ 134 µg/mL)
Cc1cc(=O)oc2cc(OCCCCn3cc(COc4ccc(N5C(N)=NC(N)=NC56CCCCC6)cc4)nn3)ccc12	Mycobacterium bovis		BCG Tac^r9.1, thyA S125P missense	TA-C-resistant thyA mutant	MIC50	3.2 µM (≈ 1.87 µg/mL)
